Measured values collected from several papers.
B1: SOG1 (Arabidopsis thaliana, UniProt Q6NQK2); sequence looked up; chain MAGRSWLIDSNRIATKIMSASASSDPRQVVWKSNPSRHCPKCQHVIDNSDVVDDWPGLPRGVKFDPSDPEIIWHLLAKSGLSGLSSHPFIDEFIPTVNQDDGICYTHPKNLPGVKSDGTVSHFFHKAIKAYSTGTRKRRKIHDDDFGDVRWHKTGRTKPVVLDGVQRGCKKIMVLYGGKAVKTNWVMHQYHLGIEEDEKEGDYVVSKIFYQQPQQLVVKRGDKAEQEVSEDIFAAVTPTADPVTPKLATPEPRNAVRICSDSHIASDYVTPSDYVSAHEVSLAETSEVMCMEDEVQSIQPNHERPSSGPELEHGLENGAKEMLDDKEEQEKDRDNENQGEEDPTWFDSGSQFILNSQQLVEALSLCDDLLGSQDREENTNSGSLKDKQPCIADYAHLGPEDFKRDLEECQKIVLDPSNIELDTPPEFRLSQLEFGSQDSFLAWGTGKTD
B2: POLDIP2 52-368 H225A (Homo sapiens, UniProt Q9Y2S7); sequence looked up; chain SSRNRPEGKVLETVGVFEVPKQNGKYETGQLFLHSIFGYRGVVLFPWQARLYDRDVASAAPEKAENPAGHGSKEVKGKTHTYYQVLIDARDCPHISQRSQTEAVTFLANHDDSRALYAIPGLDYVSHEDILPYTSTDQVPIQHELFERFLLYDQTKAPPFVARETLRAWQEKNAPWLELSDVHRETTENIRVTVIPFYMGMREAQNSHVYWWRYCIRLENLDSDVVQLRERHWRIFSLSGTLETVRGRGVVGREPVLSKEQPAFQYSSHVSLQASSGHMWGTFRFERPDGSHFDVRIPPFSLESNKDEKTPPSGLHW
B3: KPNA6 (Homo sapiens, UniProt O60684); chain METMASPGKDNYRMKSYKNNALNPEEMRRRREEEGIQLRKQKREQQLFKRRNVELINEEAAMFDSLLMDSYVSSTTGESVITREMVEMLFSDDSDLQLATTQKFRKLLSKEPSPPIDEVINTPRVVDRFVEFLKRNENCTLQFEAAWALTNIASGTSQQTKIVIEAGAVPIFIELLNSDFEDVQEQAVWALGNIAGDSSVCRDYVLNCSILNPLLTLLTKSTRLTMTRNAVWALSNLCRGKNPPPEFAKVSPCLPVLSRLLFSSDSDLLADACWALSYLSDGPNEKIQAVIDSGVCRRLVELLMHNDYKVASPALRAVGNIVTGDDIQTQVILNCSALPCLLHLLSSPKESIRKEACWTISNITAGNRAQIQAVIDANIFPVLIEILQKAEFRTRKEAAWAITNATSGGTPEQIRYLVSLGCIKPLCDLLTVMDSKIVQVALNGLENILRLGEQEGKRSGSGVNPYCGLIEEAYGLDKIEFLQSHENQEIYQKAFDLIEHYFGVEDDDSSLAPQVDETQQQFIFQQPEAPMEGFQL
B4: CFTR 1381-1480 (Homo sapiens, UniProt P13569); sequence looked up; chain YQIIRRTLKQAFADCTVILCEHRIEAMLECQQFLVIEENKVRQYDSIQKLLNERSLFRQAISPSDRVKLFPHRNSSKCKSKPQIAALKEETEEEVQDTRL
B5: SWC3 (Saccharomyces cerevisiae, UniProt P31376); sequence looked up; chain MPAVLRTRSKESSIEQKPASRTRTRSRRGKRGRDDDDDDDDEESDDAYDEVGNDYDEYASRAKLATNRPFEIVAGLPASVELPNYNSSLTHPQSIKNSGVLYDSLVSSRRTWVQGEMFELYWRRPKKIVSESTPAATESPTSGTIPLIRDKMQKMCDCVMSGGPHTFKVRLFILKNDKIEQKWQDEQELKKKEKELKRKNDAEAKRLRMEERKRQQMQKKIAKEQKLQLQKENKAKQKLEQEALKLKRKEEMKKLKEQNKNKQGSPSSSMHDPRMIMNLNLMAQEDPKLNTLMETVAKGLANNSQLEEFKKFIEIAKKRSLEENPVNKRPSVTTTRPAPPSKAKDVAEDHRLNSITLVKSSKTAATEPEPKKADDENAEKQQSKEAKTTAESTQVDVKKEEEDVKEKGVKSEDTQKKEDNQVVPKRKRRKNAIKEDKDMQLTAFQQKYVQGAEIILEYLEFTHSRYYLPKKSVVEFLEDTDEIIISWIVIHNSKEIEKFKTKKIKAKLKADQKLNKEDAKPGSDVEKEVSFNPLFEADCPTPLYTPMTMKLSGIHKRFNQIIRNSVSPMEEVVKEMEKILQIGTRLSGYNLWYQLDGYDDEALSESLRFELNEWEHAMRSRRHKR
B6: HY5 (Arabidopsis thaliana, UniProt O24646); sequence looked up; chain MQEQATSSLAASSLPSSSERSSSSAPHLEIKEGIESDEEIRRVPEFGGEAVGKETSGRESGSATGQERTQATVGESQRKRGRTPAEKENKRLKRLLRNRVSAQQARERKKAYLSELENRVKDLENKNSELEERLSTLQNENQMLRHILKNTTGNKRGGGGGSNADASL
B7: EFR3A 721-791 F755A (Homo sapiens, UniProt Q14156); chain SNTEEITFEALKKAIDTSGMEEQEKEKRRLVIEKAQKAPFEEIAAQCESKANLLHDRLAQILELTIRPPPS
B8: FliG middle domain 104-193 (Thermotoga maritima, UniProt Q9WY63); sequence looked up; chain QVKPFSFVRDTDPVQLVNFLQSEHPQTIAVVLSYLDPPVAAQILGALPEELQTEVLKRIALLERTSPEVVKEIERNLEKKISGFVSRTFS
B9: PSMG3/PSMG4 heterodimer (Homo sapiens); chain 1 MEDTPLVISKQKTEVVCGVPTQVVCTAFSSHILVVVTQFGKMGTLVSLEPSSVASDVSKPVLTTKVLLGQDEPLIHVFAKNLVAFVSQEAGNRAVLLAVAVKDKSMEGLKALREVIRVCQVW; chain 2 MEGLVVAAGGDVSLHNFSARLWEQLVHFHVMRLTDSLFLWVGATPHLRNLAVAMCSRYDSIPVSTSLLGDTSDTTSTGLAQRLARKTNKQVFVSYNLQNTDSNFALLVENRIKEEMEAFPEKF
B10: AZI2 1-75 (Homo sapiens, UniProt Q9H6S1); chain MDALVEDDICILNHEKAHKRDTVTPVSIYSGDESVASHFALVTAYEDIKKRLKDSEKENSLLKKRIRFLEEKLIA
B11: PUM1 589-1186 (Homo sapiens, UniProt Q14671); chain ISSSAAQAAVAAAAASANGAAGGLAGTTNGPFRPLGTQQPQPQPQQQPNNNLASSSFYGNNSLNSNSQSSSLFSQGSAQPANTSLGFGSSSSLGATLGSALGGFGTAVANSNTGSGSRRDSLTGSSDLYKRTSSSLTPIGHSFYNGLSFSSSPGPVGMPLPSQGPGHSQTPPPSLSSHGSSSSLNLGGLTNGSGRYISAAPGAEAKYRSASSASSLFSPSSTLFSSSRLRYGMSDVMPSGRSRLLEDFRNNRYPNLQLREIAGHIMEFSQDQHGSRFIQLKLERATPAERQLVFNEILQAAYQLMVDVFGNYVIQKFFEFGSLEQKLALAERIRGHVLSLALQMYGCRVIQKALEFIPSDQQNEMVRELDGHVLKCVKDQNGNHVVQKCIECVQPQSLQFIIDAFKGQVFALSTHPYGCRVIQRILEHCLPDQTLPILEELHQHTEQLVQDQYGNYVIQHVLEHGRPEDKSKIVAEIRGNVLVLSQHKFASNVVEKCVTHASRTERAVLIDEVCTMNDGPHSALYTMMKDQYANYVVQKMIDVAEPGQRKIVMHKIRPHIATLRKYTYGKHILAKLEKYYMKNGVDLGPICGPPNGII
B12: KAT7 364-473 (Homo sapiens, UniProt O95251); sequence looked up; chain RLYMCEFCLKYMKSQTILRRHMAKCVWKHPPGDEIYRKGSISVFEVDGKKNKIYCQNLCLLAKLFLDHKTLYYDVEPFLFYVMTEADNTGCHLIGYFSKEKNSFLNYNVS
B13: BZIP28 1-322 (Arabidopsis thaliana, UniProt Q9SG86); sequence looked up; chain MTESTSVVAPPPEIPNLNPSMFSESDLFSIPPLDPLFLSDSDPISMDAPISDLDFLLDDENGDFADFDFSFDNSDDFFDFDLSEPAVVIPEEIGNNRSNLDSSENRSGDGGLEGRSESVHSQVSSQGSKTFVSDTVDASSSPESSNHQKSSVSKRKKENGDSSGELRSCKYQKSDDKSVATNNEGDDDDDKRKLIRQIRNRESAQLSRLRKKQQTEELERKVKSMNATIAELNGKIAYVMAENVALRQQMAVASGAPPMNPYMAAPPLPYQWMPYPPYPVRGYGSQTPLVPIPKLNPKPVSSCRPKKAESKKNEGKSKLKKV
B14: PUM1 589-701 (Homo sapiens, UniProt Q14671); sequence looked up; chain ISSSAAQAAVAAAAASANGAAGGLAGTTNGPFRPLGTQQPQPQPQQQPNNNLASSSFYGNNSLNSNSQSSSLFSQGSAQPANTSLGFGSSSSLGATLGSALGGFGTAVANSNT
B15: PDCL (Homo sapiens, UniProt Q13371); sequence looked up; chain MTTLDDKLLGEKLQYYYSSSEDEDSDHEDKDRGRCAPASSSVPAEAELAGEGISVNTGPKGVINDWRRFKQLETEQREEQCREMERLIKKLSMTCRSHLDEEEEQQKQKDLQEKISGKMTLKEFAIMNEDQDDEEFLQQYRKQRMEEMRQQLHKGPQFKQVFEISSGEGFLDMIDKEQKSIVIMVHIYEDGIPGTEAMNGCMICLAAEYPAVKFCKVKSSVIGASSQFTRNALPALLIYKGGELIGNFVRVTDQLGDDFFAVDLEAFLQEFGLLPEKEVLVLTSVRNSATCHSEDSDLEID
B16: exbD 43-140 (Serratia marcescens, UniProt V5YUQ0); sequence looked up; chain VDIRVDLPASSAKPQPRPEKPVFLSVKADKQLYVGDQPVNADQLTSVLDQRTQANKETTIFFQADKSVDYETLMSVMDTLRKAGYLKVGLVGMEGAAK
B17: SNAPC3 (Homo sapiens, UniProt Q92966); chain MAEGSRGGPTCSGVGGRQDPVSGSGGCNFPEYELPELNTRAFHVGAFGELWRGRLRGAGDLSLREPPASALPGSQAADSDREDAAVARDLDCSLEAAAELRAVCGLDKLKCLEDGEDPEVIPENTDLVTLGVRKRFLEHREETITIDRACRQETFVYEMESHAIGKKPENSADMIEEGELILSVNILYPVIFHKHKEHKPYQTMLVLGSQKLTQLRDSIRCVSDLQIGGEFSNTPDQAPEHISKDLYKSAFFYFEGTFYNDKRYPECRDLSRTIIEWSESHDRGYGKFQTARMEDFTFNDLCIKLGFPYLYCHQGDCEHVIVITDIRLVHHDDCLDRTLYPLLIKKHWLWTRKCFVCKMYTARWVTNNDSFAPEDPCFFCDVCFRMLHYDSEGNKLGEFLAYPYVDPGTFN
UniProt Q8TDY2, sequence (whole entry, looked up): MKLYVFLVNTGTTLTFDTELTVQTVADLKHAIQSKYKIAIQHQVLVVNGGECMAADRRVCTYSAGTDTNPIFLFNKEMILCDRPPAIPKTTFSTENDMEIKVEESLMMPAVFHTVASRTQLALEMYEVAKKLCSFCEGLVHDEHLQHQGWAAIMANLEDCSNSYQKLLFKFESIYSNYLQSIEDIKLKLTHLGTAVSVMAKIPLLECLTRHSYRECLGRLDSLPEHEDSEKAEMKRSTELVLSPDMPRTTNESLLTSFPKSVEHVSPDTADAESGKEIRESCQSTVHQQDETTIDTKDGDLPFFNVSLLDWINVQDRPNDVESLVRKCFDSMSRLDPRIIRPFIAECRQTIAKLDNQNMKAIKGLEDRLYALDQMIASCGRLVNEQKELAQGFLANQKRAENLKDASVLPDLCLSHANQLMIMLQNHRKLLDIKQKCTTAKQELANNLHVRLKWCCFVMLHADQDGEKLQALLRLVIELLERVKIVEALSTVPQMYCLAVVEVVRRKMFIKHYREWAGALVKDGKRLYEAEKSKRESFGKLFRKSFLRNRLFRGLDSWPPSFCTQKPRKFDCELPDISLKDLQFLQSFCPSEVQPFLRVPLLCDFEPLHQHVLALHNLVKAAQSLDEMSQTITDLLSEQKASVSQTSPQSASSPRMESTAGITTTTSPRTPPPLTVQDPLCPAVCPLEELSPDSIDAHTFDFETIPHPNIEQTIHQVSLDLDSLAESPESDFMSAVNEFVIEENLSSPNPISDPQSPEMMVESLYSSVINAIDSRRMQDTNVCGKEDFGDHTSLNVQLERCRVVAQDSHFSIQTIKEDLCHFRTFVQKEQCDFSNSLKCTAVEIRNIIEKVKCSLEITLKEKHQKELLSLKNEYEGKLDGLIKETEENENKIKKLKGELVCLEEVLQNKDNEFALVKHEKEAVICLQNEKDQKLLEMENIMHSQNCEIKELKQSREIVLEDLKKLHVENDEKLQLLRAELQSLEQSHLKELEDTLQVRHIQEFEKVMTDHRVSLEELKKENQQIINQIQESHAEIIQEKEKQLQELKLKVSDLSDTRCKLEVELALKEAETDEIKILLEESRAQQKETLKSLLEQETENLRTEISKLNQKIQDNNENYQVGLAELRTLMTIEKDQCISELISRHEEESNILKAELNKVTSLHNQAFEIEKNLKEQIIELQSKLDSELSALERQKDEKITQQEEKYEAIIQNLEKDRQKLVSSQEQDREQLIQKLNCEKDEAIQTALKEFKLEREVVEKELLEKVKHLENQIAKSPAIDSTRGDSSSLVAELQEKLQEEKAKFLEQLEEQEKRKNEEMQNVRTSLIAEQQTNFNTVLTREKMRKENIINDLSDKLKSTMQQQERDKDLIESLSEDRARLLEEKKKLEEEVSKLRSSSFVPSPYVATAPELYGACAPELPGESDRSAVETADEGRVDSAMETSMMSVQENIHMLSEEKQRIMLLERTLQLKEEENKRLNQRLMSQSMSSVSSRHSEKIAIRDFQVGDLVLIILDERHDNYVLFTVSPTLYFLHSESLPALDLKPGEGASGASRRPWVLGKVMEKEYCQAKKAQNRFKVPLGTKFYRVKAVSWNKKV
UniProt O95210, sequence (whole entry, looked up): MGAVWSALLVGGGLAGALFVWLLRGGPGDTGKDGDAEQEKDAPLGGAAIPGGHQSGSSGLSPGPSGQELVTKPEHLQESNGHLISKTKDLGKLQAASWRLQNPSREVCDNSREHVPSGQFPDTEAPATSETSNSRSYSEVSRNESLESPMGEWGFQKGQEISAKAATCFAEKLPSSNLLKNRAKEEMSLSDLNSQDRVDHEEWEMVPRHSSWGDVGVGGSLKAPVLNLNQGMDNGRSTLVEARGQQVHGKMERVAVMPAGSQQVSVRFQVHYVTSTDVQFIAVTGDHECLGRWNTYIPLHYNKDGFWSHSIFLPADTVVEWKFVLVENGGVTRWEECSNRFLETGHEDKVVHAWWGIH
UniProt Q9NVU0, sequence (whole entry, looked up): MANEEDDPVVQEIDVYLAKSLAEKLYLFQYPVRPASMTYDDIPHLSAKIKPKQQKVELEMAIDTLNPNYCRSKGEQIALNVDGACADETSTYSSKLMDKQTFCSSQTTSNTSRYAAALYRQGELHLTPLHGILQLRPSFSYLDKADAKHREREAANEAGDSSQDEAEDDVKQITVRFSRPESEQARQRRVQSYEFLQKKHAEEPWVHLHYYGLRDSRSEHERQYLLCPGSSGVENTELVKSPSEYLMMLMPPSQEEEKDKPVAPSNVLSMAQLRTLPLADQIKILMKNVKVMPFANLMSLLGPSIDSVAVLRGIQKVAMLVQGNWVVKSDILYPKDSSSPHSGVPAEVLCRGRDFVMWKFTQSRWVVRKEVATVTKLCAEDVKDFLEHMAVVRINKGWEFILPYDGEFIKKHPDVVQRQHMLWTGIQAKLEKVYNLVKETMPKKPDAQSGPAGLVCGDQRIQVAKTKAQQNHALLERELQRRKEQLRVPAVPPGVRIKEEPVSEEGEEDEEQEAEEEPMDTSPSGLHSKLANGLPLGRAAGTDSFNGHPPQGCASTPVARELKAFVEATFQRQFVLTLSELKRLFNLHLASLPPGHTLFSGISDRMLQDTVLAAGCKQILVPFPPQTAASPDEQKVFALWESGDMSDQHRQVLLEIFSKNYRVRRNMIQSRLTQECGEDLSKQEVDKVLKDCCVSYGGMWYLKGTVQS
UniProt Q9LET0, sequence (whole entry, looked up): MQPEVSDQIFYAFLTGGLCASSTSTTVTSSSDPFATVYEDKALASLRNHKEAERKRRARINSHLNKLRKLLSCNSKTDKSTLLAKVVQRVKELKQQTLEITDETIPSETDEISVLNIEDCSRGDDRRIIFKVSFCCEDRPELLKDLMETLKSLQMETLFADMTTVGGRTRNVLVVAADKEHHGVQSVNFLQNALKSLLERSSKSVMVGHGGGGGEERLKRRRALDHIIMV
UniProt P92973, sequence (whole entry, looked up): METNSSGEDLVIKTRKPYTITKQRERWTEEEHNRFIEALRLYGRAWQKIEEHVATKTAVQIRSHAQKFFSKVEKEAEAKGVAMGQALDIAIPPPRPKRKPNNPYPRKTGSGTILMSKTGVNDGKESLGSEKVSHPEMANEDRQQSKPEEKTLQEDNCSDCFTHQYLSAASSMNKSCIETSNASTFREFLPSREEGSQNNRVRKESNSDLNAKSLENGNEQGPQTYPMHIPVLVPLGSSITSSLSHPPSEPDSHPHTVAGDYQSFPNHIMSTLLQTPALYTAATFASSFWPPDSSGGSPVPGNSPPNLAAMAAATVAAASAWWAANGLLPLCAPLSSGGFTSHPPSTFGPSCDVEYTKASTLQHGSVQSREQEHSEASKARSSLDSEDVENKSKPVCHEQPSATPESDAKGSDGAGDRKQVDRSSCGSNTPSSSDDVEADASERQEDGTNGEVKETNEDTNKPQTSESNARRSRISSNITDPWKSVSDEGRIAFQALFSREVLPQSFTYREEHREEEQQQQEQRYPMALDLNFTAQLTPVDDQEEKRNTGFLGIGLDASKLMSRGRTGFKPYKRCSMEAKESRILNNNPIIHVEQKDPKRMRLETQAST
UniProt Q9WZE6, sequence (whole entry, looked up): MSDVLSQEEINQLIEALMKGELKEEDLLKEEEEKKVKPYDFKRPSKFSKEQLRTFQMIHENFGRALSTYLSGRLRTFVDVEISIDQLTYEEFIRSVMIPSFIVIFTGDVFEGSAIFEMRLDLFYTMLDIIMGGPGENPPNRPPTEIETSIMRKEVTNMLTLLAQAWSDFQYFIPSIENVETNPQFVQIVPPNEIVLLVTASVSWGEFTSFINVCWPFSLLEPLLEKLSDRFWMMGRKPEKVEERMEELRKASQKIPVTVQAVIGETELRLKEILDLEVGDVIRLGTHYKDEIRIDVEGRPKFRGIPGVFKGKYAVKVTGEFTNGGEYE
UniProt O14818, sequence (whole entry, looked up): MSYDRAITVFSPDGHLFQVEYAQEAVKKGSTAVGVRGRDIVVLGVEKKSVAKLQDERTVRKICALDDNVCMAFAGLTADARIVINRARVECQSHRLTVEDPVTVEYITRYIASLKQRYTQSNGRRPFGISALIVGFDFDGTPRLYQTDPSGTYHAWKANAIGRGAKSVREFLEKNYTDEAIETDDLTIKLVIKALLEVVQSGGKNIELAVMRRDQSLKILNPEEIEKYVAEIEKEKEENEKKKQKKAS
UniProt Q42384, sequence (whole entry, looked up): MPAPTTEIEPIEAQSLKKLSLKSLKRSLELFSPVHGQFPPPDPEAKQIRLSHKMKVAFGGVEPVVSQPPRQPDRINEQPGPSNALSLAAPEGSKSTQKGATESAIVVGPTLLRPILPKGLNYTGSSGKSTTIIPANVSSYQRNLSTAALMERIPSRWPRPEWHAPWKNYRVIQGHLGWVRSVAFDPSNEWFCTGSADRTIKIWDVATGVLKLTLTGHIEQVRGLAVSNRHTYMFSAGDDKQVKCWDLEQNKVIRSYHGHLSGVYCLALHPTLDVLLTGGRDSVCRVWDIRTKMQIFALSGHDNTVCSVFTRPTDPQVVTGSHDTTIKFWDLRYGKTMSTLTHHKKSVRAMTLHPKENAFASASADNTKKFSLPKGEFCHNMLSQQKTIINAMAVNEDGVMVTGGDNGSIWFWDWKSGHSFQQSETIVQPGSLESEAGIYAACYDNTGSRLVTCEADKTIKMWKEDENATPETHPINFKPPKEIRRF

Substance | partner | test | system | setting | binding
B1 (SOG1) | PRL1 (Arabidopsis thaliana, UniProt Q42384) | pull-down | – | – | binds
B2 (POLDIP2 52-368 H225A) | CLPX/CLPP CLPP 14-mer, CLPX hexamer, ATPγS-bound 65-633 (Homo sapiens) | co-IP | – | – | binds
B3 (KPNA6) | TF S685D (Homo sapiens, UniProt P02787) | GST pull-down | – | – | binds
SMARCA4 fragment (Homo sapiens) (sequence not shown) | ACTB (Homo sapiens, UniProt P60709) | pull-down | – | not purified | binds
B4 (CFTR 1381-1480) | PTEN 1-351 (Homo sapiens, UniProt P60484) | pull-down | – | – | binds
B5 (SWC3) | VPS72 (Saccharomyces cerevisiae, UniProt Q03388) | cryo-EM | – | – | binds
B6 (HY5) | BHLH107 (Arabidopsis thaliana, UniProt Q9LET0) | pull-down | – | – | binds
SKKNNAASELANPASSYVSQIRKHKRVSPNAAPR (Nup60 285-318 Y298A (Saccharomyces cerevisiae, UniProt P39705); sequence looked up) | NUP85/SEH1 Nup85 1-564 (Saccharomyces cerevisiae) | pull-down | peptide | – | binds
B7 (EFR3A 721-791 F755A) | TTC7B/FAM126A FAM126A 1-308 (Homo sapiens) | BLI | – | – | binds
HEEWEMVPRHS (STBD1 200-210 (Homo sapiens, UniProt O95210)) | RB1CC1 1490-1594 (Homo sapiens, UniProt Q8TDY2) | SEC | – | – | binds
B8 (FliG middle domain 104-193) | fliM 1-229 (Thermotoga maritima, UniProt Q9WZE6) | NMR titration | – | – | binds
B9 (PSMG3/PSMG4 heterodimer) | PSMA7 (Homo sapiens, UniProt O14818) | cryo-EM | – | – | binds
B10 (AZI2 1-75) | RB1CC1 1286-1594 (Homo sapiens, UniProt Q8TDY2) | SEC | – | – | binds
B11 (PUM1 589-1186) | CNOT1/CNOT2/CNOT3 C-terminal NOT module 1833-2361 | pull-down | – | – | binds
B12 (KAT7 364-473) | KAT8 (Homo sapiens, UniProt Q9H7Z6) | pull-down | – | – | binds
FAEKFKEAVKDYFAKFWDPAAEKLKEAVKDYFAKLWD (reversed nanodisc peptide NSPr) | SOAT1 66-550 (Homo sapiens, UniProt P35610) | reconstitution pull-down | peptide | added: detergent-free | binds
B13 (BZIP28 1-322) | CCA1 1-405 (Arabidopsis thaliana, UniProt P92973) | pull-down | – | – | binds
B14 (PUM1 589-701) | CNOT1/CNOT2/CNOT3 NOT module 1833-2361 | pull-down | – | – | binds
B15 (PDCL) | CCT5 (Homo sapiens, UniProt P48643) | cross-linking | – | – | binds
B16 (exbD 43-140) | hasB 37-263 (Serratia marcescens, UniProt Q79AD1) | NMR titration | – | – | binds
SNEWLLPRSPYK (engineered peptide) | EPHB2 19-543 (Homo sapiens, UniProt P29323) | SPR | peptide | – | binds
B17 (SNAPC3) | POLR3E (Homo sapiens, UniProt Q9NVU0) | cryo-EM | – | – | binds
